Measurements pooled from the literature.
Compare with care: the assays were run in different laboratories. ± gives the spread as reported.
Chain of UniProt O75164 (whole entry, looked up): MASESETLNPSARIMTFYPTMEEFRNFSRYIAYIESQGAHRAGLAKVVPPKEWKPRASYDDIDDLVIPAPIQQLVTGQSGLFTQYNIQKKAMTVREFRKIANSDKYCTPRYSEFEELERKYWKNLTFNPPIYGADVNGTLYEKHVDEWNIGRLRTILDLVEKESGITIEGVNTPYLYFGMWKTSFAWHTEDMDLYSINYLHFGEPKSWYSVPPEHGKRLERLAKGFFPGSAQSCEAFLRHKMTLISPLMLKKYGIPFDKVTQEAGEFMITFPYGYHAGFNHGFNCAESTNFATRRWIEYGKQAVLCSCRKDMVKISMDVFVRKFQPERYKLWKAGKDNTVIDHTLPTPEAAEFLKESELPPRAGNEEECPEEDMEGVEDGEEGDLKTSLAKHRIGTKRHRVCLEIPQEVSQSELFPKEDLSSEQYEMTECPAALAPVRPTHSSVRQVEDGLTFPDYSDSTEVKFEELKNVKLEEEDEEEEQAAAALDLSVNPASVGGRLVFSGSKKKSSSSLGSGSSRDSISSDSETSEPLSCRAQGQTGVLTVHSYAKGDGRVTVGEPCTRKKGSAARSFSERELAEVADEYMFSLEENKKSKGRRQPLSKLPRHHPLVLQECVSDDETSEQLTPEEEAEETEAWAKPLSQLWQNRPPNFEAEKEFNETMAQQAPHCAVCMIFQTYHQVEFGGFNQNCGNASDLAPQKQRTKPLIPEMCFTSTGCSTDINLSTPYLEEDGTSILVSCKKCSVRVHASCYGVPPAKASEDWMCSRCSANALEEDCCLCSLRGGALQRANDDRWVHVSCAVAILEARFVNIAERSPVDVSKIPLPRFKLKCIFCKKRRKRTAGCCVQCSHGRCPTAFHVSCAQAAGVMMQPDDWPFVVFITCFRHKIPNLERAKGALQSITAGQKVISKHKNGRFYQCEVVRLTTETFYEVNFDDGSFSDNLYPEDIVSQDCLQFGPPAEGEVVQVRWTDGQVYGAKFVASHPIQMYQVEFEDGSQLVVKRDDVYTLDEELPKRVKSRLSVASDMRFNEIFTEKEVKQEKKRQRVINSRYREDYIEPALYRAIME
Chain of UniProt Q14416 (whole entry, looked up): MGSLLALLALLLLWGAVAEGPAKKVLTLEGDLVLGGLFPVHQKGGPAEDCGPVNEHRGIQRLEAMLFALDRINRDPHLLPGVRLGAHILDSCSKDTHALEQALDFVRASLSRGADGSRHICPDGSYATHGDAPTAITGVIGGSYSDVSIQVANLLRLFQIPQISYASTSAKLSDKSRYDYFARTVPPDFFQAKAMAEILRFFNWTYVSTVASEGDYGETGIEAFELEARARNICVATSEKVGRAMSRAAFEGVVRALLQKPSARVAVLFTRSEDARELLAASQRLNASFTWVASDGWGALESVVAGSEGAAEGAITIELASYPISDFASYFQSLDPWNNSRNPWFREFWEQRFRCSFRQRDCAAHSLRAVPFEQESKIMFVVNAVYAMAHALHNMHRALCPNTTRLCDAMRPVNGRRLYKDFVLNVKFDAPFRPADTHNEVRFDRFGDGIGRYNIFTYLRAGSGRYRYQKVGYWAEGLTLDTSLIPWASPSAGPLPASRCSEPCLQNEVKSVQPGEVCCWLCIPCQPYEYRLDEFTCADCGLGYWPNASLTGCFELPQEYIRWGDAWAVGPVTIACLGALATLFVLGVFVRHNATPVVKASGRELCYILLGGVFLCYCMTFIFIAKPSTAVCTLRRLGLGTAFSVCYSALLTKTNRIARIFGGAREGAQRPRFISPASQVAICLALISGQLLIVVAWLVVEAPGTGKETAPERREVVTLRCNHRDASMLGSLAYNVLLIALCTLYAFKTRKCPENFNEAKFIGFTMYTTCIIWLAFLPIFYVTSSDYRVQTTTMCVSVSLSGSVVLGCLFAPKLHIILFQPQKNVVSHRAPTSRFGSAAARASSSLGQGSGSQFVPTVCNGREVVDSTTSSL

SMILES	target or system	assay	test system	conditions	scale	quantity	value
Cc1cccc(NC(=O)CSc2nc3ccccc3cc2C=Nn2c(S)nnc2-c2ccccc2)c1C		DPPH scavenging				IC50	142 µM
O=C(O)CCCCC(=O)OCn1cc(F)c(=O)[nH]c1=O	Caco-2 butyrate-induced			added: MCT1 inhibitor 2.5 mM	reference: without inhibitor	fold decrease in uptake	5.8 fold
CCCCc1oc2ccccc2c1C(=O)c1cc(I)c(OCC[N+](C)(C)C)c(I)c1	Lysine-specific demethylase 4A, double tudor domain (KDM4A, Homo sapiens, UniProt O75164)	fluorescence polarization				IC50	34 ± 14 µM
CC(=O)N[C@@H](Cc1c[nH]c2ccccc12)C(=O)N[C@@H](CCC(=O)C=[N+]=[N-])C(=O)OC(C)C			C57BL/6 CES1-/- mouse plasma	20 µM, 60 min, 37 °C		remaining compound	> 90%
O=[N+]([O-])NC(=S)NN=Cc1ccc(F)cc1	Leishmania tropica	parasite growth, MTT		72 h, promastigote		IC50	186 µM
CCCCn1ccn2c(-c3ccc(NCc4ccc(OC)nc4)cc3)c(C)nc2c1=O			male Sprague-Dawley rat, plasma	subcutaneous, 10 mg/kg, 90 min, single dose		concentration	1920 ng/mL
CCCC(CCC)C(=O)O			mouse, pilocarpine-induced seizures	oral, 300 mg/kg, 60 min after pilocarpine	direction not given	Racine score	2.8 ± 0.63
O=C(CSc1nc2ccccc2cc1C=Nn1c(S)nnc1-c1ccccc1)Nc1ccc(Cl)cc1Cl		DPPH scavenging				IC50	124 µM
CCCCn1ccn2c(-c3ccc(N4CCNCC4)c(Cl)c3)c(C)nc2c1=O	Metabotropic glutamate receptor 2 (GRM2, Homo sapiens, UniProt Q14416)	GTPγS binding, positive allosteric modulator		added: EC20 glutamate		EC50	0.174 µM

A few entries again:
SMILES	target or system	assay	test system	conditions	scale	quantity	value
CC(=O)N[C@@H](Cc1c[nH]c2ccccc12)C(=O)N[C@@H](CCC(=O)C=[N+]=[N-])C(=O)OC(C)C			C57BL/6 CES1-/- mouse plasma	20 µM, 60 min, 37 °C		remaining compound	> 90%
